Measurements pooled from the literature.
A part holds a random share of what one study measured.

Study 1
Target: RNA binding protein fox-1 homolog 2, RRM domain, GST-SBP tag (RBFOX2, Homo sapiens, UniProt O43251-10, residues 100-194)
Technique: RNA Bind-n-Seq
Form: RNA
Sample: in vitro
Concentration: 365 nM
Notes: natural RNA segment, single round, ends assumed
Baseline: no-protein control
Reading: higher = stronger binding
Quantity: RBNS enrichment (R)
All sequences stand within: GGGAGUUCUACAGUCCGACGAUC … UGGAAUUCUCGGGUGCCAA
Target sequence (chain): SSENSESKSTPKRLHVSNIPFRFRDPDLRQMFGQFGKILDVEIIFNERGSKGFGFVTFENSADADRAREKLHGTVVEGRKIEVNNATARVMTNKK
UUUGUGCCAUUUACAAGUGGAAAUAAAUUUUAUUAUACCAUGAUCUACUGGCGUUUUAAAACUGUUAAAUGUGCACAUUUUGGGUAUAGCUAUUUUCACUUGUAUGUAUA: 0.733
AUCCAGCACUGGUGAACUGAGCUGGGCAGGAAGGGAGAACUUGAAACAGAUUCAGGCCAGCCCAGCCAGGCCAACAGCACCUCCCCGCUGGGAAGAGAAGAGGGCCCAGC: 0.33
GCCAGUGUGUGGCACCCCUCCCCCCCCAACUUCCAUUCCUGAUCUUAGGCAAGUUCUUGGAGUCUGCUCCCAGAUGGCAUCGGCUCUGAGAUACCGGUUACUUCCCUGGU: 0.875
ACCUUAUUUUUACUUGAAAUUUGCUAGAAGAAAUAGCAAACCGAAAUUUGUUUUAUGCAUGAGUUAAUACCACUGGCUCAGCAAAUACAAGUUAGUUUGCUUUAAGCAGG: 1.9
CAUUUUCAUCACUGAAAGUCAGAGGCCAAGGAAAUCAUUUCUACUUCUUUAAAAACUCCUUCUAAGCAUAUUAAAAUGUGAAAUUUUGCGUACUCUCUCUCUCUAUAUAU: 0.68
CCAUUACUUACCUAGUCAUUGUGGAACAUGACUAUGGAGAGCAUUGUAUAUUUCUAUCUGGUAGUAAUGUGUAUUUACAACAUCUGUCACUGCAGUGUUACCGGAGCUUC: 0.805
UGGGGGAAGAAGUGGAAACUAUGUCCAGUGAACUUUUCCAGUAAAUGAAGCAAGCACUAAAGUACUGUCCUGAGUUGGGAACAAAGCACUGUGGGCAAGGUCGAUGCAAU: 0.4
AUCUUCUGAGGUCAAUUAAAGGAGAAAAAAUACAAUUUCUCACUUUGCAUUUAGUCAAAAGAAAAAAUGCUUUAUAGCAAAAUGAAAGAGAACAUGAAAUGCUUCUUUCU: 0.263
GCAUAACCAUUUGUAUAAUGAGAAAUCUAGGGGAAAACCAAUCAGUCCAACAUGAGAUUUUAGGAAUAGAAAUUUGCCGGCCAUUUGGAAAGUGAAAUGCCACUUAGUUC: 0.847
UGAUCGGCACCAGAAUCCACUGUCAAUAGGCCCGUGGGUGAUCAUUACAAUUGCAAAUCUUUACUUACAGGAGAGGAAACAGAAGAGAUAAAAACUUUUCCAUGCAAAUA: 0.297
AUAAGUGCUAAGCUUAUUCUUUGGGCUUUGGGUGGCAAUUUUCAGUGAGGUAUUAAAUAUAUCUGAUACCUGAUGGGGCUGUGCCCCAUCCAGCCCUCAAAGUAGUCUCU: 0.259

Study 2
Target: Fragile X messenger ribonucleoprotein 1, C-terminal low-complexity region (Fmr1, Mus musculus, UniProt P35922)
Technique: RNA Bind-n-Seq
Form: RNA
Sample: in vitro
Concentration: 200 nM
Notes: whole 134-nt RNA, ends assumed
With: 150 mM KCl
Baseline: input library
Reading: higher = stronger binding
Quantity: log2 enrichment
All sequences stand within: GGGAGUUCUACAGUCCGACGAUC … UGGAAUUCUCGGGUGUCAAGG
CAAGUCCUGUGCUACACAUCGUAUGUACCGAAUCGGUUUUUGGUGGUUUUUUUGGAAAGUAUUAUGUUACGCCGUUCGGAUCUGCACUUC: -0.692
GUCCUGUGCUACACAUCGUAUGUACCGAAUCGGUUUUUGGGGUUUUUGGGGUUUUUGGAAAGUAUUAUGUUACGCCGUUCGGAUCUGCAC: -0.0582
CACAGACAACACGCACCCACACAGACACAGAGGGAAGGGGUUGGGAUGGGGACAGGGUGCACAGCAGGGCGGGGUAGAAACCCAGCCCCU: 1.37
GUCCUGUGCUACACAUCGUAUGUACCGAAUCGGGGAAAAAGGGGAAAGGGGUUUGGGGAAAGUAUUAUGUUACGCCGUUCGGAUCUGCAC: 0.397
CACAGACAACACGCACCCACACAGACACAGAGGGAAGGGGUUGGGAUGGGGACAGGGUGCACAGCAGGGCGGGGUAGGACGCCAGCCCCU: 1.19
CACAGACAACACGCACCCACACAGACACAGAGGGAAGGGGUUGGGAUGGGGACAGGGUGCACAGCAGGGCGGGGUAGGACCACAGCCCCU: 1.2
CUGUGCUACACAUCGUAUGUACCGAAUCGGUUUUUUUGGGGUUUUUUUGGGUUUUUUUGGGAAAGUAUUAUGUUACGCCGUUCGGAUCUG: -0.762
UGAUGAUAGUAGCAGAGAAGAUGAACAUACACAUACUAACAGUGUCACGAACUCCAGUAGUAUUGUGGACCUGCCCGUUCACCAACUCUC: 0.316

Study 3
Target: RING finger protein unkempt homolog, zinc fingers 1-6, GST-SBP tag (UNK, Homo sapiens, UniProt Q9C0B0, residues 30-357)
Sequence of UniProt Q9C0B0 (30-357, looked up): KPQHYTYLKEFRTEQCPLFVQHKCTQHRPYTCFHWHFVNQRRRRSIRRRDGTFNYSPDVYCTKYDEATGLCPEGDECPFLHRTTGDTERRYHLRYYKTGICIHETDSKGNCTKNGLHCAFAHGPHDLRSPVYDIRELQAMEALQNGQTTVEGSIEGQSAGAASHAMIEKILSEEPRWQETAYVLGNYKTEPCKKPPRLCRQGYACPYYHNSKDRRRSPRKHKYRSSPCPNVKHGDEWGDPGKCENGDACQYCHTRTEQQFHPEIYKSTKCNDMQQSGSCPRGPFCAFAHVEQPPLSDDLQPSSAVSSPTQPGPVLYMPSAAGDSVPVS
Technique: RNA Bind-n-Seq
Form: RNA
Sample: in vitro
Concentration: not given
Notes: RNA with constant flanks, human and mouse sites, ends assumed
Baseline: input RNA pool
Reading: higher = stronger binding
Quantity: bound/input enrichment
All sequences stand within: GGGAGUUCUACAGUCCGACGAUC … CAACAGAGGAUUGAGCAUCA
UUACAUUUAGGGUUUAUCAGAGCUUAAACUACUCUUAAAUUAUUUUCUAAACCUGUAGUACAAUGUAUCAUUGUAACUUCAACCAUUUUAUCCAAAGUAAACACCCAGCAAAAACAUAGU: 1.59 ratio
CAAAUUUGAUGUUUCGUCAGAGUUACUAGAGUGGAUUUGGCAUGAUAACAUGCAGUUUCUUCAAGACAAAAACAUUUUUGAACAUACAUAUUUUGGAUUUAUGUGGCAAUUGUGUAGUUG: 0.286 ratio
CUGCGAAAAUUCAUUCCGCUGUAACGUUUUUUCACAAUAUUUAAAGCAGAAGCACGUCAGUAAGGUUUCCUUCUGCAUAAGGUUUUUGUAGUGUGAUGUCUUAAUCAUAGUCUACCAUCA: 0.344 ratio
AAAUCCUGGAAGGGCUUAAUCCAGGCCUUACUGGAUGCUGCUAUUGAUUUUGAUCUUUUAGAAGACGAGGAAAGCAAAAAGUUUCAGAAGUGUCUCCAUGAAGACAAGAACCUCGUCCAU: 0.261 ratio
GGCUAGCCCCAGACCCAAAGAAUAAGAGAUAGCGAAGUUACUACAGACGUGGUCAGGGACAUUAGAAGGAGGCAGACUGCUACAGUCAGAGGCCAGGCAGUACAUCUCAGAGACAAGCUG: 0.646 ratio
AAUCCUUUCACUUGUCACUCGUGCCCCCUCCCCCAGGCCUCUUUCCCCACCUCAAGUCUGCUCUCUGUCUUCCCUCCCCUCCCUACAUUCCUAAGCCCUCUCAUCCCUCUAUCCCGAGGA: 1.17 ratio
GGCAUGAAGGACGAUCGUCGUGACAGAUACUCUGCAGGCAAAAGGGGUGGAUUUAAUACCUUUAGAGACAGGGAAAACUAUGACAGAGGCUACUCUAAUCUGCUUAAGAGAGAUUUUGGG: 0.624 ratio

Study 4
Target: PABPC1L2, full length, GST fusion (mouse, UniProt A0ABA7IW68)
Technique: RNAcompete
Form: RNA
Sample: in vitro
Concentration: 20 nM
Notes: 7-mer, probes averaged, single round
Baseline: mean of 7-mers
Reading: higher = stronger binding
Quantity: 7-mer Z-score
Construct (chain): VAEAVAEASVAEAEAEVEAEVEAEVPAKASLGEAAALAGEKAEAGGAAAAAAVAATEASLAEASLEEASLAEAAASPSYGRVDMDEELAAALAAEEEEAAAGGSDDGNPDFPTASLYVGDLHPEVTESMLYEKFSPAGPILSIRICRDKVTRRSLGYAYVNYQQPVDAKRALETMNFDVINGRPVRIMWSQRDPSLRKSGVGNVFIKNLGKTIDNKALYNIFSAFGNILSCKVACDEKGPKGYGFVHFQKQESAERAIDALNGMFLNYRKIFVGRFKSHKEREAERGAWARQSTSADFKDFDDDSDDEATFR
GCCGCCG: -0.376
CAGGGUU: -0.162
CGCAAAG: -0.113
AUCAUCG: -0.211
AUGGGGC: 0.372
UCGCCCC: -0.394
CUAGUAA: -0.021
ACGAUUC: -0.155
CUGUCAU: -0.22
CUAGCCA: -0.206
CGCGAAA: 0.706

Study 5
Target: Interferon regulatory factor 7, full length, phosphomimetic (IRF7, Homo sapiens, UniProt Q92985, residues 1-503, S101K/S471D/S472D/S475D/S476D/S477D/S483D/S484D/S487D)
Technique: protein-binding microarray
Form: double-stranded DNA, one strand shown
Sample: in vitro
Concentration: 250 nM
Notes: 60-bp whole probe
With: salmon DNA 0.4 mg/ml
Baseline: random background probes
Reading: higher = stronger binding
Quantity: log fluorescence
All sequences stand within: GCCTAGCAC … GTCTTGATTCGCTTGACGCTGCTG
Residues (chain): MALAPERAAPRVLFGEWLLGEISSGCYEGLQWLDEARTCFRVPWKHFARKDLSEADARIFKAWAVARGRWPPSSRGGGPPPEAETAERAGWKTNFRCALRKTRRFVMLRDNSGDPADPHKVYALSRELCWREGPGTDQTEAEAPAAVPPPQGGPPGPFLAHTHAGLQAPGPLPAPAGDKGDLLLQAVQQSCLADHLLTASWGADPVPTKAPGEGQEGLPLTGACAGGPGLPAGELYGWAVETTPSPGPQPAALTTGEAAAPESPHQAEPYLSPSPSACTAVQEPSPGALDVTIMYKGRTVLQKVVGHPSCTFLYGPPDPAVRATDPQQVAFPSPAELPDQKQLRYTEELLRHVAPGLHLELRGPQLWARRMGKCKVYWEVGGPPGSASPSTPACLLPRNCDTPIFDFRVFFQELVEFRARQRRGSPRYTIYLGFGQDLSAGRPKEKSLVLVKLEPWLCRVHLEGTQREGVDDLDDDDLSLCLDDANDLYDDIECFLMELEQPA
TTCTTTTCCATTTTGTGTTTGTGCTAG: 3.28 z-score
TTAGGACTGGACACTGGGTTTGTGCTA: -0.413 z-score
TCATTTTCCTATGTCATACTGTGCTAG: 2.68 z-score
GACGGCTCCGGTTTCGGGACGTGCTAG: 2.95 z-score
TTAGATTTCTGGTATCGATTAGTGCTA: 1.3 z-score
TCACCTTTCCAAATACCACTGTGCTAG: 1.23 z-score
TCAAGACTTGATTTTGGACTGTGCTAG: -0.139 z-score
ATAGGTATCGGGACTGGGTTAGTGCTA: 0.0143 z-score
GACGGTATTCTTTTCCTGACGTGCTAG: 0.598 z-score
TTAGATATCAGCCTGGATTAGTGCTAG: -0.0206 z-score
TCTACTTCTCTTTTGGCTTTGTGCTAG: 1.43 z-score
TTAGAACTGGACTATCGGTTAGTGCTA: -0.363 z-score
TTGGGACTGCTTATCCTTTAGTGCTAG: -0.374 z-score
TGAGATATCGGGTTTCGATTAGTGCTA: 6.87 z-score
CATAGAGATGCCTGTCCTCTGTGCTAG: -0.855 z-score

A few entries again (study 3):
AAUCCUUUCACUUGUCACUCGUGCCCCCUCCCCCAGGCCUCUUUCCCCACCUCAAGUCUGCUCUCUGUCUUCCCUCCCCUCCCUACAUUCCUAAGCCCUCUCAUCCCUCUAUCCCGAGGA: 1.17 ratio
GGCAUGAAGGACGAUCGUCGUGACAGAUACUCUGCAGGCAAAAGGGGUGGAUUUAAUACCUUUAGAGACAGGGAAAACUAUGACAGAGGCUACUCUAAUCUGCUUAAGAGAGAUUUUGGG: 0.624 ratio
CAAAUUUGAUGUUUCGUCAGAGUUACUAGAGUGGAUUUGGCAUGAUAACAUGCAGUUUCUUCAAGACAAAAACAUUUUUGAACAUACAUAUUUUGGAUUUAUGUGGCAAUUGUGUAGUUG: 0.286 ratio
CUGCGAAAAUUCAUUCCGCUGUAACGUUUUUUCACAAUAUUUAAAGCAGAAGCACGUCAGUAAGGUUUCCUUCUGCAUAAGGUUUUUGUAGUGUGAUGUCUUAAUCAUAGUCUACCAUCA: 0.344 ratio
AAAUCCUGGAAGGGCUUAAUCCAGGCCUUACUGGAUGCUGCUAUUGAUUUUGAUCUUUUAGAAGACGAGGAAAGCAAAAAGUUUCAGAAGUGUCUCCAUGAAGACAAGAACCUCGUCCAU: 0.261 ratio
